Experimental data pooled from the literature.
Parts stem from different laboratories: compare values within a part only.
UniProt P42336, sequence (whole entry, unmodified, looked up): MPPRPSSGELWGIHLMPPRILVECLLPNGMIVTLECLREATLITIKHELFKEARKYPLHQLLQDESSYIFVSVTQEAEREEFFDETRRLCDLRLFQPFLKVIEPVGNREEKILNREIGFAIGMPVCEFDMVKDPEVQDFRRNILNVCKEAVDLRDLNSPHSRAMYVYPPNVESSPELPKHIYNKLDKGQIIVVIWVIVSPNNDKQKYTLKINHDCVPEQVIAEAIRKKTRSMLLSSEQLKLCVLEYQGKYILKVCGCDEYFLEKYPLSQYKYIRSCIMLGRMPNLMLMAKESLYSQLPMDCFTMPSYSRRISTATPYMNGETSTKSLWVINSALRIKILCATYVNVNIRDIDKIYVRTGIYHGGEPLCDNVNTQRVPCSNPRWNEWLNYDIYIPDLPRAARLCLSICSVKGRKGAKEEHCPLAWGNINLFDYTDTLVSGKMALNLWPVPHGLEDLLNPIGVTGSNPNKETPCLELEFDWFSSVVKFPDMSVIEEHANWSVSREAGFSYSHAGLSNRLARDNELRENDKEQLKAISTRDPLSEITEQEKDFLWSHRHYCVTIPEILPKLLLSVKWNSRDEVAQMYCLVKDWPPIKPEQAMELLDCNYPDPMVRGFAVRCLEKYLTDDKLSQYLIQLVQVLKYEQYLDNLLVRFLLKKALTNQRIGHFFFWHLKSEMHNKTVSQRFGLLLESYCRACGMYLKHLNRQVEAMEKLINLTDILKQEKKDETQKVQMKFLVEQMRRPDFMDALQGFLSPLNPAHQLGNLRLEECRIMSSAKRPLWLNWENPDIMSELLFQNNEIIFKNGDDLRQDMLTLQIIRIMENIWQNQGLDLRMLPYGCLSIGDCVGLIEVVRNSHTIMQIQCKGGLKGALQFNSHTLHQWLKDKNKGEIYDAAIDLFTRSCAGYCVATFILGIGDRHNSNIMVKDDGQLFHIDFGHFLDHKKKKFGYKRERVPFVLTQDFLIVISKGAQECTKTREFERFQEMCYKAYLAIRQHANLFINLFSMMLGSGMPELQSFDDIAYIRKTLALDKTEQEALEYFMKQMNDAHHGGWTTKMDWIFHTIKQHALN
UniProt P08069, sequence (whole entry, looked up): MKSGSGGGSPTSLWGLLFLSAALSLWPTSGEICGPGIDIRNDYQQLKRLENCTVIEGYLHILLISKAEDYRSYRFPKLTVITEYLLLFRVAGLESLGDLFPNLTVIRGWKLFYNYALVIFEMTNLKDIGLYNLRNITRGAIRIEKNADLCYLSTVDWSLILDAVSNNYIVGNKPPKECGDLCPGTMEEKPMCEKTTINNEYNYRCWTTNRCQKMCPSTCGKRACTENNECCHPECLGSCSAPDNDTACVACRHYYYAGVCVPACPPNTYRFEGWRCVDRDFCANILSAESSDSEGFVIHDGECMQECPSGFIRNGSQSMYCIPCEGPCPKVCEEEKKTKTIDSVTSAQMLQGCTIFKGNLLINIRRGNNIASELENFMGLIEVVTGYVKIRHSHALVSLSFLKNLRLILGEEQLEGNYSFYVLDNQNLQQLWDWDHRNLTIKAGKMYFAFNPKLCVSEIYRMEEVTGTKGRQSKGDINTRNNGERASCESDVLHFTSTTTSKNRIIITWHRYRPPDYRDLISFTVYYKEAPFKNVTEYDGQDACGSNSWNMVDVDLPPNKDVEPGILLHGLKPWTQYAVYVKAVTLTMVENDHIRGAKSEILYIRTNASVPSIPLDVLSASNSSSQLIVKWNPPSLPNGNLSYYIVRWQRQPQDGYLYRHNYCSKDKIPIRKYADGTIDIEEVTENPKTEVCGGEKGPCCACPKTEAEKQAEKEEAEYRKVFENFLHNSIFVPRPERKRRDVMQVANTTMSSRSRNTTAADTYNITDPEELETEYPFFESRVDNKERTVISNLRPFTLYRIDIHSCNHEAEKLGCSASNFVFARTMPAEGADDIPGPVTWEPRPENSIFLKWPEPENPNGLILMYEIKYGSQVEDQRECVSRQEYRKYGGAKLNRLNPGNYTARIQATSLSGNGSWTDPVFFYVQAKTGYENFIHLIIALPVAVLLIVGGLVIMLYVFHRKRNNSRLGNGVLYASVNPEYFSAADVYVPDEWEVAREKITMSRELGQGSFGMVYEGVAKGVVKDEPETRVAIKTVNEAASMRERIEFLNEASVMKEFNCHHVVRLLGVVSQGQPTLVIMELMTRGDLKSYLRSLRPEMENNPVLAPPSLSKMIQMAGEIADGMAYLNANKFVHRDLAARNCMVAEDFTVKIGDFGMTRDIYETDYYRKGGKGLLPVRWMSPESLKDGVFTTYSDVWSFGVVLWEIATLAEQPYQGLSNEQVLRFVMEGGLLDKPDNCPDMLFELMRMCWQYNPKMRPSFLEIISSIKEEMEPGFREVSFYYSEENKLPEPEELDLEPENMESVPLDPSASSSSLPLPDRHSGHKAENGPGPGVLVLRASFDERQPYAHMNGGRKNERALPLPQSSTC
UniProt Q9UPE1, sequence (whole entry, looked up): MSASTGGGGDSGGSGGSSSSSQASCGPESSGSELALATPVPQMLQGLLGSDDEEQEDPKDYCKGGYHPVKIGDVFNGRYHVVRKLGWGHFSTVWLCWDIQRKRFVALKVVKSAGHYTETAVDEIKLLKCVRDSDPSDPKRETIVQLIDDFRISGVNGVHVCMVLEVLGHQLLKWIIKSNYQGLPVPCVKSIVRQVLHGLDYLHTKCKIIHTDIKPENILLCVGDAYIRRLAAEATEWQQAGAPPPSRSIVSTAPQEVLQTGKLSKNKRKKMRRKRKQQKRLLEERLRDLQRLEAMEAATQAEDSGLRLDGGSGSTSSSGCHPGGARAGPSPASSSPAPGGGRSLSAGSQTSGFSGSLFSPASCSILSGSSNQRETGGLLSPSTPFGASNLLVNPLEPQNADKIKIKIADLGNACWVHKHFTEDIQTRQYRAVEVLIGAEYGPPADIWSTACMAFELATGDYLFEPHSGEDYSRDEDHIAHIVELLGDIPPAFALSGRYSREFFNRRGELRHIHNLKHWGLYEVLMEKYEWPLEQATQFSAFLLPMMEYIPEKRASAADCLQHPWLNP

Study 1
Target: PABPC1L2, full length, GST fusion (mouse, UniProt A0ABA7IW68)
Method: RNAcompete
Form: RNA
Sample: in vitro
Concentration: 20 nM
Setting: 7-mer, probes averaged, single round
Reference: mean of 7-mers
Reading: higher = stronger binding
Construct (chain): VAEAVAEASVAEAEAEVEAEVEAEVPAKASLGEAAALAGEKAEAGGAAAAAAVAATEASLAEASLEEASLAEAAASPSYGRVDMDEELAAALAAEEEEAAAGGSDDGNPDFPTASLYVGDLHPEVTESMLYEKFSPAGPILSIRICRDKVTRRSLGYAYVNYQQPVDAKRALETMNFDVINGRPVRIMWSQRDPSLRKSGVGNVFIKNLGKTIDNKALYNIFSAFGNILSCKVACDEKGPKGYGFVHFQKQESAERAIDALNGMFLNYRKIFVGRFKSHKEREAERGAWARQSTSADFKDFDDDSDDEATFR
Strand | 7-mer Z-score
GUAGAAC | -0.0989
GGCGUAU | -0.104
CGGUUAG | -0.0174
UGCCUUA | -0.331
CUAACGU | -0.316
ACACGCU | -0.0971
CUUUUGC | -0.344
GUUGGAG | -0.0627

Study 2
Structure (SMILES): CN([C@@H]1CCc2c(CC(=O)O)c3cc(S(C)(=O)=O)ccc3n2C1)S(=O)(=O)c1ccc(F)cc1
Read-out: cell-free assay
Method: competition with immobilised ligand
Concentration: 1 µM
target | remaining binding [%]
Phosphatidylinositol 4,5-bisphosphate 3-kinase catalytic subunit alpha isoform (PIK3CA, Homo sapiens, UniProt P42336, H1047L) | 96
SRSF protein kinase 3 (SRPK3, Homo sapiens, UniProt Q9UPE1) | 100
Insulin-like growth factor 1 receptor (IGF1R, Homo sapiens, UniProt P08069) | 98
Tyrosine-protein kinase ABL1, non-phosphorylated (ABL1, Homo sapiens, UniProt P00519, T315I) | 88

Study 3
Target: Tyrosine-protein kinase Lyn (LYN, Homo sapiens, UniProt P07948)
UniProt P07948, sequence (whole entry, looked up): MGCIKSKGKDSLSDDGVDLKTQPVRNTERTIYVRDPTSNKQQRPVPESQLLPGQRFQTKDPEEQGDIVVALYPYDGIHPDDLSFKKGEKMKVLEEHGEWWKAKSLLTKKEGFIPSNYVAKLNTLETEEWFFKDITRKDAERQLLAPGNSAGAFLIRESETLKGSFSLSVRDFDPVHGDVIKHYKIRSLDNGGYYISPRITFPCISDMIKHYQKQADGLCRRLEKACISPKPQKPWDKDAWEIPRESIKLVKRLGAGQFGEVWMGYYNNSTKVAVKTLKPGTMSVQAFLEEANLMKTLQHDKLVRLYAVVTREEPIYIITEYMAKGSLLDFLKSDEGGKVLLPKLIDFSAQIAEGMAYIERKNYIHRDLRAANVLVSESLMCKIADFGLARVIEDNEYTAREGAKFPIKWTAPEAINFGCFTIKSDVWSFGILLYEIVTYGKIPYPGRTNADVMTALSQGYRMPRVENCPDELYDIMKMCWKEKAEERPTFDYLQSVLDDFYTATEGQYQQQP
Read-out: enzyme activity
Action: inhibitor
Concentration: 0.5 µM
Reference: control
SMILES | remaining activity [%]
OCC(O)CCON=C1C(c2c(O)[nH]c3ccccc23)=Nc2ccccc21 (stereo not drawn) | 25.4
COc1cc2nccc(Oc3ccc(NC(=S)NC(=O)c4ccccc4C)cc3)c2cc1OC | 16.9
O=C1NC(=O)C(c2cn(CCCO)c3ncccc23)=C1c1cnccn1 | 112
Nc1[nH]nc2nc3ccccc3nc12 | 97
NCCNc1ncc(C(N)=O)c(Nc2cccc(C(F)(F)F)c2)n1 | 74.5
CCOC(=O)c1c(C)[nH]c(/C=C2\C(=O)Nc3ccccc32)c1C | 84.1
Oc1ccc(-c2nc(-c3ccncc3)c(-c3ccc(F)cc3)[nH]2)cc1 | 94.8
C#Cc1cccc(Nc2ncnc3cc(OCCOC)c(OCCOC)cc23)c1 | 72.5
CO[C@H]1C[C@@H]2CC[C@@H](C)[C@@](O)(O2)C(=O)C(=O)N2CCCC[C@H]2C(=O)O[C@H]([C@H](C)C[C@@H]2CC[C@@H](O)[C@H](OC)C2)CC(=O)[C@H](C)/C=C(\C)[C@@H](O)[C@@H](OC)C(=O)[C@H](C)C[C@H](C)/C=C/C=C/C=C/1C | 100
COc1ccc(C(=O)Nc2sc3c(c2C(N)=O)CCCC3)cc1OC | 93.5
Cc1ccc(NC(=O)c2ccc(CN3CCN(C)CC3)cc2)cc1Nc1nc(-c2cccnc2)cs1 | 16.2
COc1ccc(CNC(=O)Nc2ncc([N+](=O)[O-])s2)cc1 | 91.4
N#CC(C#N)=C(N)/C(C#N)=C/c1ccc(O)cc1 | 92.2
COc1cc2ncnc(Nc3ccc(F)c(Cl)c3)c2cc1OCCCN1CCOCC1 | 57.1
Nc1ncnc2n[nH]c(Nc3ccc(F)cc3)c12 | 89.7

Other studies, line by line
Method: cross-linking MS
Substance | partner | sample | setting | added | quantity | value
ALDOA (Homo sapiens, UniProt P04075) | ALDOC (Homo sapiens, UniProt P09972) |  | hits only |  | interaction screen | cross-linked
ACTN2 (Homo sapiens, UniProt P35609) | KDSR (Homo sapiens, UniProt Q06136) | cell fractions |  | DMTMM | cross-linked residues | K748 to E110
MDH2 (Homo sapiens, UniProt P40926) | ACO2 (Homo sapiens, UniProt Q99798) | cell fractions |  | DHSO | cross-linked residues | E232 to E639

Repeated from above (study 3):
SMILES | remaining activity [%]
COc1cc2nccc(Oc3ccc(NC(=S)NC(=O)c4ccccc4C)cc3)c2cc1OC | 16.9
N#CC(C#N)=C(N)/C(C#N)=C/c1ccc(O)cc1 | 92.2
